Assay results pooled from the literature.
Protocols differ between the studies behind these lines.
B1: IL10 mature N18Y/N92Q/T100D/R104W (UniProt P22301); sequence looked up; chain SPGQGTQSENSCTHFPGYLPNMLRDLRDAFSRVKTFFQMKDQLDNLLLKESLLEDFKGYLGCQALSEMIQFYLEEVMPQAENQDPDIKAHVQSLGENLKDLRLWLRRCHRFLPCENKSKAVEQVKNAFNKLQEKGIYKAMSEFDIFINYIEAYMTMKIRN
B2: DNAJB11 (Homo sapiens, UniProt Q9UBS4); chain GRDFYKILGVPRSASIKDIKKAYRKLALQLHPDRNPDDPQAQEKFQDLGAAYEVLSDSEKRKQYDTYGEEGLKDGHQSSHGDIFSHFFGDFGFMFGGTPRQQDRNIPRGSDIIVDLEVTLEEVYAGNFVEVVRNKPVARQAPGKRKCNCRQEMRTTQLGPGRFQMTQEVVCDECPNVKLVNEERTLEVEIEPGVRDGMEYPFIGEGEPHVDGEPGDLRFRIKVVKHPIFERRGDDLYTNVTISLVESLVGFEMDITHLDGHKVHISRDKITRPGAKLWKKGEGLPNFDNNNIKGSLIITFDVDFPKEQLTEEAREGIKQLLKQGSVQKVYNGLQGY
B3: rasC GTP-bound Q62L (Dictyostelium discoideum, UniProt P32253); chain MSKLLKLVIVGDGGVGKSALTIQLTQNQFIAEYDPTIENSYRKQVNIDEEVYMLDILDTAGLEEYSAMRDQYIRSGRGFLIVYSIISRASFEAVTTFREQILRVKDLSTYPIVIIGNKADLPDKDRKVPPMEGKELAKSFGAPFLETSAKSRVNVEEAFFTLVREIKRWNQNPQNEEMLPPKKRGCIIL
B4: mel-26 (Caenorhabditis elegans, UniProt Q94420); sequence looked up; chain MEPRIDGGVFIGGIGNSGNEMCSNGVPALGVSSQTEIKVEKVQHTWTVKNFSHCYQEYLENFVYLQRGDEQLTWSIKIYPKGNGENNKDFVFLCLNRVINNNVKAGKIGFKSQFKLRTAENKDIEMRIHPNPSHSDYVSYIKRDVLFPQIMPRDMIIVNVEIDVAVETITTTNEPIQFEPTNSEQQLIEDYQRLFSQELLCDFAINVNGKIIRAHKAVLAARSPVFNAMLTHQDTDEAKSSMMYINDMDYDVIYEMVYYIYCGRCNKDITDMATALLIAADKYRLEELKSHCEKYLVENINIENACSLLIIGDLYSAPKLRKRAVTYILARPKNVTGTPGWEDILKGHPNLITDIFSQIDRQSSTGATSSVSNLPGVPMDIPGITGNIVPPPSGL
B5: BNI5 (Saccharomyces cerevisiae, UniProt P53890); sequence looked up; chain MGLDQDKIKKRLSQIEIDINQMNQMIDENLQLVEPAEDEAVEDNVKDTGVVDAVKVAETALFSGNDGADSNPGDSAQVEEHKTAQVHIPTENEANKSTDDPSQLSVTQPFIAKEQITHTAIAIGDSYNSFVANSAGNEKAKDSCTENKEDGTVNIDQNRGEADVEIIENNDDEWEDEKSDVEEGRVDKGTEENSEIESFKSPMPQNNTLGGENKLDAELVLDKFSSANKDLDIQPQTIVVGGDNEYNHESSRLADQTPHDDNSENCPNRSGGSTPLDSQTKIFIPKKNSKEDGTNINHFNSDGDGQKKMANFETRRPTNPFRVISVSSNSNSRNGSRKSSLNKYDSPVSSPITSASELGSIAKLEKRHDYLSMKCIKLQKEIDYLNKMNAQGSLSMEDGKRLHRAVVKLQEYLDKKTKEKYEVGVLLSRHLRKQIDRGENGQFWIGTK
B6: UGT1A9 (Homo sapiens, UniProt O60656); chain GKLLVVPMDGSHWFTMRSVVEKLILRGHEVVVVMPEVSWQLGRSLNCTVKTYSTSYTLEDLDREFKAFAHAQWKAQVRSIYSLLMGSYNDIFDLFFSNCRSLFKDKKLVEYLKESSFDAVFLDPFDNCGLIVAKYFSLPSVVFARGILCHYLEEGAQCPAPLSYVPRILLGFSDAMTFKERVRNHIMHLEEHLLCHRFFKNALEIASEILQTPVTEYDLYSHTSIWLLRTDFVLDYPKPVMPNMIFIGGINCHQGKPLPMEFEAYINASGEHGIVVFSLGSMVSEIPEKKAMAIADALGKIPQTVLWRYTGTRPSNLANNTILVKWLPQNDLLGHPMTRAFITHAGSHGVYESICNGVPMVMMPLFGDQMDNAKRMETKGAGVTLNVLEMTSEDLENALKAVINDKSYKENIMRLSSLHKDRPVEPLDLAVFWVEFVMRHKGAPHLRPAAHDLTWYQYHSLDVIGFLLAVVLTVAFITFKCCAYGYRKCLGKKGRVKKAHKSKTH
B7: Ncan (Rattus norvegicus, UniProt P55067); 125I label, chondroitin sulfate chains; sequence looked up; chain DQDTQDTTTTEKGLHMLKSGSGPIQAALAELVALPCFFTLQPRQSPLGDIPRIKWTKVQTASGQRQDLPILVAKDNVVRVAKGWQGRVSLPAYPRHRANATLLLGPLRASDSGLYRCQVVKGIEDEQDLVTLEVTGVVFHYRAARDRYALTFAEAQEACHLSSATIAAPRHLQAAFEDGFDNCDAGWLSDRTVRYPITQSRPGCYGDRSSLPGVRSYGRRDPQELYDVYCFARELGGEVFYVGPARRLTLAGARALCQRQGAALASVGQLHLAWHEGLDQCDPGWLADGSVRYPIQTPRRRCGGSAPGVRTVYRFANRTGFPAPGARFDAYCFRAHHHTPQRGDSEIPSSGDEGEIVSAEGPPAPELKPRLGEQEVITPDFQEPLVSSGEDEPLDLTRTQASQETLASTPGGPTLASWLLTGVTSSTGVPSPSSLGVDMEETTPSGTQVAPTPTMRRGRFKGLNGRHFQQQGPEDQLLEAAEASAQPPTLEVTADHMGPSAATEALESDQSHSPWAILTNEVDVPGAGSLGSRSLPESRKWSPSLISPSTVPSTDSTPGLKPGADEAPGVKSAIHHPPWLPSEPAVPSSIPSEALSAVSLQASPGDGSPDFPIVAMLRAPKLWLLPHSTLVPNVSPIPLSPASPLPSSVPEEQAVRPVSFGAEDPETPFQTTMAAPGEASHGSPEADSIEIEGISSMQATKHPISGPWASLDSSNVTVNPVPSDAGILGTESGVLDLPGSPTSDGQATVDMVLATWLPLPGHGLDTGSQSTPMEAHGVTMSVEPTVALEGGATKDPMEATMDVVPSTVDATSGSEPKSSISSTHVVVTAAGDQGTPTLTPTSSEGQVVAQESLGTLTSLPSHPWSSLASSMDEVASVSSGEPTRLWDIPSTLIPVSLGLDESDLKVVAESPGLEGFWEEVASGQEDPTDPCENNPCLHGGTCRTNGTMYGCSCDQGYAGENCEIDIDDCLCSPCENGGTCIDEVNGFICLCLPSYGGNLCEKDTEGCDRGWHKFQGHCYRYFAHRRAWEDAERDCRRRAGHLTSVHSPEEHKFINSFGHENSWIGLNDRTVERDFQWTDNTGLQYENWREKQPDNFFAGGEDCVVMVAHENGRWNDVPCNYNLPYVCKKGTVLCGPPPAVENASLVGVRKVKYNVHATVRYQCDEGFSQHHVATIRCRSNGKWDRPQIVCTKPRRSHRMRRHHHHPHRHHKPRKEHRKHKRHPAEDWEKDEGDFC
UniProt P04387, sequence (whole entry, looked up): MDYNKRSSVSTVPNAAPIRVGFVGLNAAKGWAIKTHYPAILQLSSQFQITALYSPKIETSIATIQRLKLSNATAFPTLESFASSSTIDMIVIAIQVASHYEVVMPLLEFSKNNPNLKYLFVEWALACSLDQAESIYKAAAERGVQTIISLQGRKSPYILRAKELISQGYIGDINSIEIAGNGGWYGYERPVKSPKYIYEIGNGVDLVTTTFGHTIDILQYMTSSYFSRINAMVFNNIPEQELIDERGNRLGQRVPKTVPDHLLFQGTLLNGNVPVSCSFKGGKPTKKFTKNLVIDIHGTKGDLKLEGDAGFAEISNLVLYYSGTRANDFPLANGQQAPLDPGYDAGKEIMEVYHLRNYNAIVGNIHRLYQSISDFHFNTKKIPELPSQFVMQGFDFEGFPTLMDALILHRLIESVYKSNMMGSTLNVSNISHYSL
UniProt P34808, sequence (whole entry, looked up): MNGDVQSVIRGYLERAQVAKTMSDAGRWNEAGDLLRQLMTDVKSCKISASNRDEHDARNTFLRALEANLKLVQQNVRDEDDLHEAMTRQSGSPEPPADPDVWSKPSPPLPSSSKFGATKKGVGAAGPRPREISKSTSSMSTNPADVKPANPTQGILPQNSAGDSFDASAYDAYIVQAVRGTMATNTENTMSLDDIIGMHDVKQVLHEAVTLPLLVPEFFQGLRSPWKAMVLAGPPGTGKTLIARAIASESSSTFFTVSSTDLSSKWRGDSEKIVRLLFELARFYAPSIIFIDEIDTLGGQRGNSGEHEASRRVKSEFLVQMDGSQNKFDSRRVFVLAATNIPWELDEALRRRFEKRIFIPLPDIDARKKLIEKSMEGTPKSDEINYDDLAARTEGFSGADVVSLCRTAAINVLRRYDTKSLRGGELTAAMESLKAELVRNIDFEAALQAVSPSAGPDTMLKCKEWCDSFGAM
UniProt Q79PF4, sequence (whole entry, unmodified, looked up): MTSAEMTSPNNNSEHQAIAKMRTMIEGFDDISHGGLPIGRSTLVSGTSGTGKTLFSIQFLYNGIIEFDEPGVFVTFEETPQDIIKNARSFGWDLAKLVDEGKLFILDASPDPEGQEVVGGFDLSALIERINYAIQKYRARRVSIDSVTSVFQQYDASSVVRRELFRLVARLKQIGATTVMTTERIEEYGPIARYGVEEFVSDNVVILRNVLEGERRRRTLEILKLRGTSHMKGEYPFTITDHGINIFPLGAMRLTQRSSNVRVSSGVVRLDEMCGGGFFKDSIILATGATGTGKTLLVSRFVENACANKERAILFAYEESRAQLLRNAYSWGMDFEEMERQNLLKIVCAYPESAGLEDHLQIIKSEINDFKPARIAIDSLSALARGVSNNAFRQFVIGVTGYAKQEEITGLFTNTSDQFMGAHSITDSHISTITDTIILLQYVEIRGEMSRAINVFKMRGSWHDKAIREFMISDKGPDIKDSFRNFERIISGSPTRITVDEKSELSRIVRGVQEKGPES
UniProt P13045, sequence (whole entry, looked up): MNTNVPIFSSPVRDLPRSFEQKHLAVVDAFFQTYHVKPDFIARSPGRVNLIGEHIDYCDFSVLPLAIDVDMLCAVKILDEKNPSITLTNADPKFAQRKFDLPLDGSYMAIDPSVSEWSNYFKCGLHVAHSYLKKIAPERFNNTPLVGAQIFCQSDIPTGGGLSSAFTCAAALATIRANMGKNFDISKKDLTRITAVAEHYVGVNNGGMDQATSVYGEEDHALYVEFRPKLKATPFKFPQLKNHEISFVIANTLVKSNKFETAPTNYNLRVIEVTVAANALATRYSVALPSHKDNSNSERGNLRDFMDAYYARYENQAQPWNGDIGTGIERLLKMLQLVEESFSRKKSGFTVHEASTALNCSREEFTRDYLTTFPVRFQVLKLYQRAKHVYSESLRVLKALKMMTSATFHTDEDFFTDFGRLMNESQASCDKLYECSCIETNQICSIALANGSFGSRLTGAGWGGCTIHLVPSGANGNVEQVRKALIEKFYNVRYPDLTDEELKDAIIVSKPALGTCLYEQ
UniProt Q08334, sequence (whole entry, unmodified, looked up): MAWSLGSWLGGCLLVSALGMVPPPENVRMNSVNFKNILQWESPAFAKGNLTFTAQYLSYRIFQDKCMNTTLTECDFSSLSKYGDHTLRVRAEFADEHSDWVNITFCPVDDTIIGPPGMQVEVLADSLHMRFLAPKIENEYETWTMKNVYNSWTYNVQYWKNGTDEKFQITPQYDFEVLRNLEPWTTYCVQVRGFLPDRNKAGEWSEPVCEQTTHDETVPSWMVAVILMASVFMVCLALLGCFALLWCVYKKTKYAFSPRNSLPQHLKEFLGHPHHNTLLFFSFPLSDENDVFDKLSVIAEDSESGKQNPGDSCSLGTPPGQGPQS
UniProt Q23862, sequence (whole entry, unmodified, looked up): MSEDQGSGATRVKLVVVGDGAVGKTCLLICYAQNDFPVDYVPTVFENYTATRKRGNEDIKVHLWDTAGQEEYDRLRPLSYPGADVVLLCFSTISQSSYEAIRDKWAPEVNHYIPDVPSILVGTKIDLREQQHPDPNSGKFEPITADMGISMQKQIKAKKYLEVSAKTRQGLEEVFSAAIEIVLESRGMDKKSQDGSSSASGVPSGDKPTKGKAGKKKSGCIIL
UniProt O43791, sequence (whole entry, looked up): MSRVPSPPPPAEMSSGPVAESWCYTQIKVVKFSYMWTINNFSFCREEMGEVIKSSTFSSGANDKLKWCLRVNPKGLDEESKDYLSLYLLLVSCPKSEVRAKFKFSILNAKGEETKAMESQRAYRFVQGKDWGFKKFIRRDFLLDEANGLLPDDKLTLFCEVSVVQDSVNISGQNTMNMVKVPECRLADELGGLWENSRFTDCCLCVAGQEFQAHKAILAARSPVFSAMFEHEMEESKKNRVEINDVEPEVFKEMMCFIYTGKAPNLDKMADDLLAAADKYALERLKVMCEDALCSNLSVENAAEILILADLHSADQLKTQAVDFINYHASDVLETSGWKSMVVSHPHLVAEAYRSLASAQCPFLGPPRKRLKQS
UniProt Q05695, sequence (whole entry, looked up): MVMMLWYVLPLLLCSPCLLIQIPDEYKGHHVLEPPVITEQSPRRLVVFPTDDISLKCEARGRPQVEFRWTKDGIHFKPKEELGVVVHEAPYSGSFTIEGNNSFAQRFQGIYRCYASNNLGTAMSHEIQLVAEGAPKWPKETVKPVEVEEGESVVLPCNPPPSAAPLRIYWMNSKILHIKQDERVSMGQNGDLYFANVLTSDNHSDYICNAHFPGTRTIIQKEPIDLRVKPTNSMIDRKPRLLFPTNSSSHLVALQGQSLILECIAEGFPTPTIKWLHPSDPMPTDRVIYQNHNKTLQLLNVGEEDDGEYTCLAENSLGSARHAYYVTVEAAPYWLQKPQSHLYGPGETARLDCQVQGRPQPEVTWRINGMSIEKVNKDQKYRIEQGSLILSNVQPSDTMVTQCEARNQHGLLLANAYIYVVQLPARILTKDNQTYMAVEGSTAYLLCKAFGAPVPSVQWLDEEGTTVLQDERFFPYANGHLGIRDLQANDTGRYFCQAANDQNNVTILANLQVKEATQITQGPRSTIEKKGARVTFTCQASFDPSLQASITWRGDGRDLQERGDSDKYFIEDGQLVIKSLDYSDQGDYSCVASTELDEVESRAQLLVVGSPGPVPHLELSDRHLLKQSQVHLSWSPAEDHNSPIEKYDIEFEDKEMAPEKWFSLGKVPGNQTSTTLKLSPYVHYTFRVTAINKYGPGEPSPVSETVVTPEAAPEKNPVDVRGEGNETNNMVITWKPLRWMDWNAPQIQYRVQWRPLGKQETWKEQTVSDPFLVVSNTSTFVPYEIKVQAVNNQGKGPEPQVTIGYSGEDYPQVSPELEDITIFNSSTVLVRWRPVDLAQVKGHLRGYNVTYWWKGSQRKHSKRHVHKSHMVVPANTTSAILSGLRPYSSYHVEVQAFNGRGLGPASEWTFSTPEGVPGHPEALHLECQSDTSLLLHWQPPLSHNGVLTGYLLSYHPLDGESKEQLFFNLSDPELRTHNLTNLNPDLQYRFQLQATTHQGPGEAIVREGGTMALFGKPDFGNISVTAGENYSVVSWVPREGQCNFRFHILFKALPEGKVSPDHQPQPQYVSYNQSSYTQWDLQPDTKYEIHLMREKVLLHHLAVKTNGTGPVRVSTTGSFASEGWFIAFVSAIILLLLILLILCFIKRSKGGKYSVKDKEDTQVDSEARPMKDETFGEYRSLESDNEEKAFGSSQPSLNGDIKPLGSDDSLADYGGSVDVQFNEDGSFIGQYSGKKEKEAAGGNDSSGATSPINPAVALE
UniProt Q06904, sequence (whole entry, looked up): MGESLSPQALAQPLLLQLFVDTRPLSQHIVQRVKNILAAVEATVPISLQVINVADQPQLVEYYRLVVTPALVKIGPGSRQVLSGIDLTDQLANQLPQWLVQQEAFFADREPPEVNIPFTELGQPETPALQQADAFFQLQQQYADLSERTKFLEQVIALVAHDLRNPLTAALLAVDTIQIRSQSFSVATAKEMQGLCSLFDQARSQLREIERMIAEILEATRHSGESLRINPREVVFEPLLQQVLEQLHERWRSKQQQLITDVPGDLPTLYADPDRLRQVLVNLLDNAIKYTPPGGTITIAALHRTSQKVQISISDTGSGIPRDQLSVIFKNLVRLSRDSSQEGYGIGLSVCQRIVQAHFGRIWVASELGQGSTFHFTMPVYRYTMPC

| Molecule | tested on | test | setting | measurement | result |
| --- | --- | --- | --- | --- | --- |
| GHMEAVTPLTKAADISLDNLVEGKRKRRSNVSSPATPTASSSSSTTPTRKITESGW (TP53BP1 residues 1606-1656 (Homo sapiens, UniProt Q12888)) | SPOP MATH domain 28-164 (Homo sapiens, UniProt O43791) | NMR titration | 4 °C | binding | binds |
| B1 | IL10RB 20-220 N49Q/N68Q/N102Q/N161Q (Homo sapiens, UniProt Q08334) | SEC | – | binding | binds |
| GAL80 (Saccharomyces cerevisiae, UniProt P04387) | GAL3, Cy3 label (Saccharomyces cerevisiae, UniProt P13045) | sedimentation velocity, AUC | 5 µM, Cy3-labeled | binding | binds |
| B2 (DNAJB11) | HSP90B1 E103A (Homo sapiens, UniProt P14625) | pull-down | – | binding | binds |
| B3 (rasC GTP-bound Q62L) | racE GDP-bound T25N, pS192 (Dictyostelium discoideum, UniProt Q23862) | pull-down | – | binding | binds |
| B4 (mel-26) | mei-1, phosphorylated by MBK-2 (Caenorhabditis elegans, UniProt P34808) | far-Western | 4 °C, denatured | binding | binds |
| B5 (BNI5) | Cdc11/Cdc12/Cdc3/Cdc10 hetero-octamer (Saccharomyces cerevisiae) | negative-stain EM | KCl 45 mM, with: septins 50 nM | binding | binds |
| sasA (Synechococcus elongatus, UniProt Q06904) | KaiC S431E/T432A (Synechococcus elongatus, UniProt Q79PF4) | fluorescence polarisation | phosphomimetic KaiC-EA | binding | binds |
| B6 (UGT1A9) | COc1cc(/C=C/c2ccc(O)cc2)cc(OC)c1 | steady-state kinetics | pH 7.4, 37 °C | Vmax | 4.04e-05 µmol/min/mg |
| B7 (Ncan) | L1cam mature (Rattus norvegicus, UniProt Q05695) | radioligand binding | – | binding | binds |

Repeated from above:
| Molecule | tested on | test | setting | measurement | result |
| --- | --- | --- | --- | --- | --- |
| B1 | IL10RB 20-220 N49Q/N68Q/N102Q/N161Q (Homo sapiens, UniProt Q08334) | SEC | – | binding | binds |
